Results of several laboratories.
Each line is one published result; not all experiments were run side by side. Numbers after ± are the reported error.

| Structure (SMILES) | assay | system | setting | endpoint | value |
| --- | --- | --- | --- | --- | --- |
| CCC[C@@](N)(CO)CCc1ccc(OCCCCCC(C)C)cc1 | – | male hound dog, plasma | oral, 2.5 mg/kg, capsule, geometric mean | AUC(0-t) | 1.59 µM·h |
| CO[C@H]1C[C@@H]2CC[C@@H](C)[C@@](O)(O2)C(=O)C(=O)N2CCCC[C@H]2C(=O)O[C@H]([C@H](C)C[C@@H]2CC[C@@H](OC(=O)NCCOCCOCCOCCOCCOCCOCCOCCOCCC(=O)N3CCc4cc(Cn5nc(-c6ccc7oc(N)nc7c6)c6c(N)ncnc65)ccc4C3)[C@H](OC)C2)C[C@@H](O)[C@H](C)/C=C(\C)[C@@H](O)[C@@H](OC)C(=O)[C@H](C)C[C@H](C)/C=C/C=C/C=C/1C | phase 1 dose escalation | advanced solid tumour patients | intravenous, 12 mg weekly, grade ≥3 | AEs causing dose modification | 25% |
| NC(=O)[C@H]1CCN(c2ncnc(N)c2F)C[C@@H]1N1CCC[C@@H](Nc2cc(Cl)cc(C(F)(F)F)c2)C1=O | – | B-cell malignancy patients | oral, 328 mg twice daily, dose | grade ≥3 hyponatraemia | 0% |
| Cc1c(COC(=O)[C@@H]2[C@H](/C=C(\Cl)C(F)(F)F)C2(C)C)cccc1-c1ccccc1 (racemic) | measured: CYP3A4 | human, age 6 months, recombinant human CYP3A4 | 0.1 µM | enzyme contribution to clearance | 17.1% |
| COc1cc2c(Oc3ccc4[nH]c(C)cc4c3F)ccnc2cc1OCC1(N)CC1 | – | sarcoma, recurrent or refractory, high-risk, paediatric | concentration not given, grade 3, whole group | mouth ulcer incidence | 0% |
| COc1ccnc(C(=O)N[C@H]2COC(=O)[C@H](Cc3ccccc3)[C@@H](OC(=O)C(C)C)[C@H](C)OC2=O)c1OCOC(=O)C(C)C | – | rat | oral, 90 day, highest dose tested | NOAEL | 732 mg/kg/day |
| CN1CCN(S(=O)(=O)c2cc([N+](=O)[O-])ccc2N(CCOS(C)(=O)=O)CCOS(C)(=O)=O)CC1 | – | naive female NSG mice, plasma | intraperitoneal, 10 mg/kg | elimination rate constant | 0.00112 s⁻¹ |
| CC(C)C[C@H](NC(=O)[C@H](CCCCN)NC(=O)OCC1c2ccccc2-c2ccccc21)C(=O)N[C@H](C(=O)N[C@@H](Cc1ccccc1)C(=O)N[C@@H](Cc1ccccc1)C(=O)N[C@@H](CCCCN)C(=O)NCC(=O)N[C@@H](Cc1ccccc1)C(=O)N[C@@H](C)C(=O)N[C@@H](Cc1c[nH]c2ccccc12)C(=O)N[C@@H](CC(N)=O)C(=O)N[C@H](C(=O)N[C@H]1CSSC[C@@H](C(=O)N[C@@H](Cc2c[nH]cn2)C(=O)N[C@@H](CCCNC(=N)N)C(=O)N[C@@H](CCCNC(=N)N)C(=O)N[C@@H](C)C(=O)N[C@@H](CC(N)=O)C(N)=O)NC(=O)[C@H](C(C)C)NC(=O)[C@H](CCCNC(=N)N)NC(=O)[C@H](C(C)C)NC(=O)CNC(=O)[C@H](CC(N)=O)NC(=O)[C@H](CCCNC(=N)N)NC(=O)[C@H](Cc2ccc(O)cc2)NC(=O)[C@H](C(C)C)NC1=O)C(C)C)C(C)C | – | ICR mice, blood | intraperitoneal, 5 mg/kg, day 5 | lymphocytes | 74.7 ± 1.19% |
| Cn1cc(-c2nc(N[C@@H]3CCCC[C@@H]3N)c(F)c3c2C(=O)NC3)cn1 | measured: Mouth haemorrhage | patients with relapsed or refractory AML | oral, dose not given, all doses | hemorrhagic adverse events | 7% |
| COc1ncccc1-c1cnn2ccc(N3CCN(C(=O)OC(C)C)CC3)nc12 | – | mouse SNL model, brain | oral, 30 mg/kg, 30 min | concentration | 35 µM |
| COc1ccc2c(c1)CN[C@@H](C(=O)N[C@H](CN1CC[C@@](C)(c3cccc(O)c3)[C@@H](C)C1)C(C)C)C2 | – | Sprague-Dawley rat, brain | intraperitoneal, 5 mg/kg | AUCtotal | 1850 ng·h/g |
| CC(=O)c1c(C)c2cnc(Nc3ccc(C4CCN(CCS(C)(=O)=O)CC4)cn3)nc2n(C2CCCC2)c1=O | – | HR+/HER2- advanced breast cancer patients | oral, 25 mg, dose escalation | patients with serious adverse reactions | 0% |
